# Measurements from different studies.
# Each line is one published result; not all experiments were run side by side. Values joined by “and” are separate records of one study, mostly repeats; a detail may differ. ± marks the error that the study gave.
Compound,cell line,effect on,technique,time,notes,IC50
CC(=O)Nc1ccn(C2OC(COC(C)=O)C3CC=CCC32)c(=O)n1 (mixture of isomers),"PHA-stimulated human PBM cells, uninfected",cytotoxicity,,6 days,,> 100 µM
CCCCn1cc(C(=O)O)c(=O)c2cc(F)c3c(nnn3-c3ccccc3OC)c21,A375-S2,cell growth or viability,SRB,,,30.6 µM and 30.8 µM and < 50 µM
CC(C)=CCC1=C(O)c2c(occ(-c3ccc(O)cc3)c2=O)C(CC=C(C)C)(CC=C(C)C)C1=O,NHDF,cell growth or viability,MTT,24 h,,17.5 µM
CC(=O)OCC1OC(n2cc(C)c(=O)[nH]c2=O)C2CC=CCC12 (mixture of isomers),"PHA-stimulated human PBM cells, uninfected",cytotoxicity,,6 days,,> 100 µM
CCCCn1cc(C(=O)O)c(=O)c2cc(F)c(Nc3ccccc3OC)c([N+](=O)[O-])c21,A375-S2,cell growth,SRB,72 h,,74.6 ± 9.14 µg/mL
CC(=O)Oc1ccccc1/C=C/C(=O)Nc1nc(=O)n([C@@H]2O[C@H](C)[C@@H](OC(C)=O)[C@H]2OC(C)=O)cc1F,NHDF,,MTT,72 h,10% FBS,98.5 ± 10.5 µM
CC(=O)OCC1OC(n2cnc3c(Cl)nc(Cl)nc32)C2CC=CCC12 (mixture of isomers),"PHA-stimulated human PBM cells, uninfected",cytotoxicity,,6 days,,43.1 µM
Cc1ccc(-c2nn(-c3ccccc3)cc2/C=C(\C#N)c2nc3ccccc3[nH]2)cc1,MRC5,cell growth or viability,ATP luminescence,72 h,,> 100 µM
CCCCn1cc(C(=O)O)c(=O)c2cc(F)c3c(nnn3-c3ccc(OC)cc3)c21,A375-S2,cell growth,SRB,72 h,,39.4 ± 7.4 µg/mL
N#C/C(=C\c1cn(-c2ccccc2)nc1-c1ccc(Cl)cc1Cl)c1nc2ccccc2[nH]1,MRC5,cell growth or viability,ATP luminescence,72 h,,> 100 µM
CC(=O)Oc1ccc(/C=C/C(=O)Nc2nc(=O)n([C@@H]3O[C@H](C)[C@@H](OC(C)=O)[C@H]3OC(C)=O)cc2F)cc1OC(C)=O,NHDF,,MTT,72 h,10% FBS,121 ± 4.32 µM
N#C/C(=C\c1cn(-c2ccccc2)nc1-c1ccc(Br)cc1)c1nc2ccccc2[nH]1,MRC5,cell growth or viability,ATP luminescence,72 h,,> 100 µM
CC(=O)OCC1OC(n2ccc(=O)[nH]c2=O)C2CC=CCC12 (mixture of isomers),"PHA-stimulated human PBM cells, uninfected",cytotoxicity,,6 days,,> 100 µM
CC1OC(Oc2c(-c3ccc(O)cc3)oc3cc(O)cc(O)c3c2=O)C(OC(=O)C=Cc2ccc(O)cc2)C(O)C1OC(=O)C=Cc1ccc(O)cc1 (stereo not shown),LPC-H12 mouse liver cancer,cell growth,,48 h,,> 10 µM
CCCCn1cc(C(=O)O)c(=O)c2cc(F)c(Nc3cccc(OC)c3)c([N+](=O)[O-])c21,A375-S2,cell growth or viability,SRB,,,406 µM
CC(C)=CCc1c2c(c(O)c3c(=O)c(-c4ccc(O)cc4O)coc13)C=CC(C)(C)O2,NHDF,cell growth or viability,MTT,24 h,,30.9 µM
CCCCn1cc(C(=O)O)c(=O)c2cc(F)c(Nc3cc(OC)c(OC)c(OC)c3)c([N+](=O)[O-])c21,A375-S2,cell growth,SRB,72 h,,27.5 ± 3.37 µg/mL
N#C/C(=C\c1cn(-c2ccccc2)nc1-c1ccc(F)cc1)c1nc2ccccc2[nH]1,MRC5,cell growth or viability,ATP luminescence,72 h,,80 µM
CC(=O)Oc1ccc(/C=C/C(=O)Nc2nc(=O)n([C@@H]3O[C@H](C)[C@@H](OC(C)=O)[C@H]3OC(C)=O)cc2F)cc1,NHDF,,MTT,72 h,10% FBS,96 µM
CC(C)=CCc1c2c(c(O)c3c(=O)c(-c4ccc(O)cc4)coc13)C=CC(C)(C)O2,NHDF,cell growth or viability,MTT,24 h,,18.2 µM
CC(=O)Oc1cccc(/C=C/C(=O)Nc2nc(=O)n([C@@H]3O[C@H](C)[C@@H](OC(C)=O)[C@H]3OC(C)=O)cc2F)c1,NHDF,,MTT,72 h,10% FBS,60 ± 3.17 µM
COc1ccc(CC2COC(=O)C2Cc2ccc3c(c2)OCO3)cc1OC (mixture of isomers),"A2780cis, cisplatin-resistant",cytotoxicity,,72 h,,3.25 ± 0.62 µM
